Measured values of several laboratories.
Each numbered part is a random draw from the data of one study; scales do not carry over between parts.
Chain of UniProt P29597 (whole entry, looked up): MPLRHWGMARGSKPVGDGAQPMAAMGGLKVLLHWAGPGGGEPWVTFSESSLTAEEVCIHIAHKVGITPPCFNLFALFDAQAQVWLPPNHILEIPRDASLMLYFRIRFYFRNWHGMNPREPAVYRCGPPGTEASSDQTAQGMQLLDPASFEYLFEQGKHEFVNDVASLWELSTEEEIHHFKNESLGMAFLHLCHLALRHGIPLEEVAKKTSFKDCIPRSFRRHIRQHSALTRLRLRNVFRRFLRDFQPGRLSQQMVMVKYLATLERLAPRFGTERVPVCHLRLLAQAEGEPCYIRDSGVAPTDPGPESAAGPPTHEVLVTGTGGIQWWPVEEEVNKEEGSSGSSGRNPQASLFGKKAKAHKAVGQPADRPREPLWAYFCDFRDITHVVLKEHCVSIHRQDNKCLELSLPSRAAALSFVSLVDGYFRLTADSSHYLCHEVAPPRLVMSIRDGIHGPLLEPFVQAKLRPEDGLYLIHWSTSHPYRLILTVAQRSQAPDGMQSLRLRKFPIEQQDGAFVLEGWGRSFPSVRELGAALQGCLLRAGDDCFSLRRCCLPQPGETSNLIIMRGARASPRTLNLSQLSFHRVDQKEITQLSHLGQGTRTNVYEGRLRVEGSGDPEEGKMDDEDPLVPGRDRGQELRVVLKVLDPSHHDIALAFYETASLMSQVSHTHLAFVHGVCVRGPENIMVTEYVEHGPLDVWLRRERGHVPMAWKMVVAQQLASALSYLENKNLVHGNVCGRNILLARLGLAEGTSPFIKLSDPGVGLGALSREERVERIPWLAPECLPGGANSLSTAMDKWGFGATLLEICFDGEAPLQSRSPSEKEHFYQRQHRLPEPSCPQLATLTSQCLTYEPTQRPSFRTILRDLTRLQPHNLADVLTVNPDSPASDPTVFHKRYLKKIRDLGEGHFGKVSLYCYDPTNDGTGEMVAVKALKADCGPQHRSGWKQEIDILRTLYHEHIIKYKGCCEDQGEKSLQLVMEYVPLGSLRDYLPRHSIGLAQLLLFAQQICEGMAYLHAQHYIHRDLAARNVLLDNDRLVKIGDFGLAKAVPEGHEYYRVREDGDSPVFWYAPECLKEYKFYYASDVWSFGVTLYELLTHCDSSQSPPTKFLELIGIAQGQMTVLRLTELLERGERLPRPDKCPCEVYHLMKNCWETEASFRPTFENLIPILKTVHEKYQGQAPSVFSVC
Chain of UniProt Q9P286 (whole entry, looked up): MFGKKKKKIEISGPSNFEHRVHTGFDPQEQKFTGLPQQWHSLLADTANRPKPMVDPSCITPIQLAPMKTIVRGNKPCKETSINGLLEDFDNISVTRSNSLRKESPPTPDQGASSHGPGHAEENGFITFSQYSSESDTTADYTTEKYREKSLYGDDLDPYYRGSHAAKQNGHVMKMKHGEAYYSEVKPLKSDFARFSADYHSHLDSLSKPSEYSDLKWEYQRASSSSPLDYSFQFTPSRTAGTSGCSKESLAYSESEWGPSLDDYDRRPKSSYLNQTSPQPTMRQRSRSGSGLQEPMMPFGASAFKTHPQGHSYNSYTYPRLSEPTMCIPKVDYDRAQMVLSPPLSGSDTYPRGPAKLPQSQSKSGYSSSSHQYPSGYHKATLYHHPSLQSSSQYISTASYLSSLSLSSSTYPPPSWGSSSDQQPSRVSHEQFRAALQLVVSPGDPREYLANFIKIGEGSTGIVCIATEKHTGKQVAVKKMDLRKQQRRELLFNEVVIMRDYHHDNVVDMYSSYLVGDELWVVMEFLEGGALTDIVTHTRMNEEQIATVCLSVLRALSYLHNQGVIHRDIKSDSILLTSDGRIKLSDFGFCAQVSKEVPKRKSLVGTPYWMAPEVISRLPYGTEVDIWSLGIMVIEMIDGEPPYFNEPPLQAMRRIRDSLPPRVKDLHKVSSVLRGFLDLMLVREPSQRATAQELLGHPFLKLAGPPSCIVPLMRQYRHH

Block 1 — read-out: enzyme activity; mode: inhibitor; tested at: 10 µM; endpoint: inhibition
Target: Calcium/calmodulin-dependent protein kinase type II subunit alpha (CAMK2A, Homo sapiens, UniProt Q9UQM7)
Chain of UniProt Q9UQM7 (whole entry, looked up): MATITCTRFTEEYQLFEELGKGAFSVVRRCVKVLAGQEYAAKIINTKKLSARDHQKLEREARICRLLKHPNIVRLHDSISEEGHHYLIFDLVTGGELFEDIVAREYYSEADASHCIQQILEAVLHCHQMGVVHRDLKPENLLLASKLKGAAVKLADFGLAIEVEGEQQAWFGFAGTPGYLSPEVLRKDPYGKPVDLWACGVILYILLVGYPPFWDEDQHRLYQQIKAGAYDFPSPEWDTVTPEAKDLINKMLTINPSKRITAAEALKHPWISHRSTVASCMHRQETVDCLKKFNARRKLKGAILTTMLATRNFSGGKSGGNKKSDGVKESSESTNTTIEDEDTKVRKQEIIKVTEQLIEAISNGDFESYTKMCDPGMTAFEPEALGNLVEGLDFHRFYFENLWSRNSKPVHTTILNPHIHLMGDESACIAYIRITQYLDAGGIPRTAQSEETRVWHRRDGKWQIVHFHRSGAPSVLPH
Compound = C#C[C@]1(OC(C)=O)CC[C@H]2[C@@H]3CCC4=C[C@@H](OC(C)=O)CC[C@@H]4[C@H]3CC[C@@]21C; value = 3%
Compound = COc1c(O)cc2oc3cc4c(c(O)c3c(=O)c2c1CC=C(C)C)CCC(C)(C)O4; value = -19%
Compound = C[C@H](CC[C@@H](O[C@@H]1O[C@H](CO[C@@H]2O[C@H](CO)[C@@H](O)[C@H](O)[C@H]2O)[C@@H](O)[C@H](O)[C@H]1O)C(C)(C)O)[C@H]1CC[C@@]2(C)[C@@H]3CC=C4[C@@H](CC[C@H](O[C@@H]5O[C@H](CO[C@@H]6O[C@H](CO)[C@@H](O)[C@H](O)[C@H]6O)[C@@H](O)[C@H](O)[C@H]5O)C4(C)C)[C@]3(C)[C@H](O)C[C@]12C; value = -16%
Compound = CC1=NN(c2ccccc2)C(=O)C1; value = -8%
Compound = c1ccc(C2CN3CCSC3=N2)cc1 (stereo not drawn); value = 9%

Block 2 — read-out: cell-free assay; technique: competition with immobilised ligand; tested at: 0.1 µM; endpoint: remaining binding
Compound: CS(=O)(=O)N1CCCC(NC(=O)[C@H](CCC2CCCCC2)NC(=O)c2ccc(CNC(=O)c3cnc4ccccn34)cc2)C1 (stereo partly drawn)
target = PTK2B (Homo sapiens, UniProt Q14289); value = 100%
target = MAP3K10 (Homo sapiens, UniProt Q02779); value = 100%
target = PAK5 (Homo sapiens, UniProt Q9P286); value = 97%
target = MAP3K5 (Homo sapiens, UniProt Q99683); value = 100%
target = PHKG1 (Homo sapiens, UniProt Q16816); value = 68%
target = Non-receptor tyrosine-protein kinase TYK2, JH1 (TYK2, Homo sapiens, UniProt P29597); value = 84%
target = PRKCE (Homo sapiens, UniProt Q02156); value = 83%
target = PIK3CA (Homo sapiens, UniProt P42336, M1043I); value = 37%
target = PRKACB (Homo sapiens, UniProt P22694); value = 100%
target = EGFR (Homo sapiens, UniProt P00533, del752-759); value = 100%
target = MAP3K20 (Homo sapiens, UniProt Q9NYL2); value = 79%
target = STK17A (Homo sapiens, UniProt Q9UEE5); value = 100%
target = NTRK1 (Homo sapiens, UniProt P04629); value = 100%
target = RET (Homo sapiens, UniProt P07949); value = 85%
target = Tyrosine-protein kinase ABL1, phosphorylated (ABL1, Homo sapiens, UniProt P00519, F317L); value = 100%

Block 3 — read-out: enzyme activity; mode: inhibitor; tested at: 77 µM; relative to: untreated; endpoint: remaining activity
Target: DNA polymerase theta, ATPase domain (POLQ, Homo sapiens, UniProt O75417)
Chain of UniProt O75417 (whole entry, unmodified, looked up): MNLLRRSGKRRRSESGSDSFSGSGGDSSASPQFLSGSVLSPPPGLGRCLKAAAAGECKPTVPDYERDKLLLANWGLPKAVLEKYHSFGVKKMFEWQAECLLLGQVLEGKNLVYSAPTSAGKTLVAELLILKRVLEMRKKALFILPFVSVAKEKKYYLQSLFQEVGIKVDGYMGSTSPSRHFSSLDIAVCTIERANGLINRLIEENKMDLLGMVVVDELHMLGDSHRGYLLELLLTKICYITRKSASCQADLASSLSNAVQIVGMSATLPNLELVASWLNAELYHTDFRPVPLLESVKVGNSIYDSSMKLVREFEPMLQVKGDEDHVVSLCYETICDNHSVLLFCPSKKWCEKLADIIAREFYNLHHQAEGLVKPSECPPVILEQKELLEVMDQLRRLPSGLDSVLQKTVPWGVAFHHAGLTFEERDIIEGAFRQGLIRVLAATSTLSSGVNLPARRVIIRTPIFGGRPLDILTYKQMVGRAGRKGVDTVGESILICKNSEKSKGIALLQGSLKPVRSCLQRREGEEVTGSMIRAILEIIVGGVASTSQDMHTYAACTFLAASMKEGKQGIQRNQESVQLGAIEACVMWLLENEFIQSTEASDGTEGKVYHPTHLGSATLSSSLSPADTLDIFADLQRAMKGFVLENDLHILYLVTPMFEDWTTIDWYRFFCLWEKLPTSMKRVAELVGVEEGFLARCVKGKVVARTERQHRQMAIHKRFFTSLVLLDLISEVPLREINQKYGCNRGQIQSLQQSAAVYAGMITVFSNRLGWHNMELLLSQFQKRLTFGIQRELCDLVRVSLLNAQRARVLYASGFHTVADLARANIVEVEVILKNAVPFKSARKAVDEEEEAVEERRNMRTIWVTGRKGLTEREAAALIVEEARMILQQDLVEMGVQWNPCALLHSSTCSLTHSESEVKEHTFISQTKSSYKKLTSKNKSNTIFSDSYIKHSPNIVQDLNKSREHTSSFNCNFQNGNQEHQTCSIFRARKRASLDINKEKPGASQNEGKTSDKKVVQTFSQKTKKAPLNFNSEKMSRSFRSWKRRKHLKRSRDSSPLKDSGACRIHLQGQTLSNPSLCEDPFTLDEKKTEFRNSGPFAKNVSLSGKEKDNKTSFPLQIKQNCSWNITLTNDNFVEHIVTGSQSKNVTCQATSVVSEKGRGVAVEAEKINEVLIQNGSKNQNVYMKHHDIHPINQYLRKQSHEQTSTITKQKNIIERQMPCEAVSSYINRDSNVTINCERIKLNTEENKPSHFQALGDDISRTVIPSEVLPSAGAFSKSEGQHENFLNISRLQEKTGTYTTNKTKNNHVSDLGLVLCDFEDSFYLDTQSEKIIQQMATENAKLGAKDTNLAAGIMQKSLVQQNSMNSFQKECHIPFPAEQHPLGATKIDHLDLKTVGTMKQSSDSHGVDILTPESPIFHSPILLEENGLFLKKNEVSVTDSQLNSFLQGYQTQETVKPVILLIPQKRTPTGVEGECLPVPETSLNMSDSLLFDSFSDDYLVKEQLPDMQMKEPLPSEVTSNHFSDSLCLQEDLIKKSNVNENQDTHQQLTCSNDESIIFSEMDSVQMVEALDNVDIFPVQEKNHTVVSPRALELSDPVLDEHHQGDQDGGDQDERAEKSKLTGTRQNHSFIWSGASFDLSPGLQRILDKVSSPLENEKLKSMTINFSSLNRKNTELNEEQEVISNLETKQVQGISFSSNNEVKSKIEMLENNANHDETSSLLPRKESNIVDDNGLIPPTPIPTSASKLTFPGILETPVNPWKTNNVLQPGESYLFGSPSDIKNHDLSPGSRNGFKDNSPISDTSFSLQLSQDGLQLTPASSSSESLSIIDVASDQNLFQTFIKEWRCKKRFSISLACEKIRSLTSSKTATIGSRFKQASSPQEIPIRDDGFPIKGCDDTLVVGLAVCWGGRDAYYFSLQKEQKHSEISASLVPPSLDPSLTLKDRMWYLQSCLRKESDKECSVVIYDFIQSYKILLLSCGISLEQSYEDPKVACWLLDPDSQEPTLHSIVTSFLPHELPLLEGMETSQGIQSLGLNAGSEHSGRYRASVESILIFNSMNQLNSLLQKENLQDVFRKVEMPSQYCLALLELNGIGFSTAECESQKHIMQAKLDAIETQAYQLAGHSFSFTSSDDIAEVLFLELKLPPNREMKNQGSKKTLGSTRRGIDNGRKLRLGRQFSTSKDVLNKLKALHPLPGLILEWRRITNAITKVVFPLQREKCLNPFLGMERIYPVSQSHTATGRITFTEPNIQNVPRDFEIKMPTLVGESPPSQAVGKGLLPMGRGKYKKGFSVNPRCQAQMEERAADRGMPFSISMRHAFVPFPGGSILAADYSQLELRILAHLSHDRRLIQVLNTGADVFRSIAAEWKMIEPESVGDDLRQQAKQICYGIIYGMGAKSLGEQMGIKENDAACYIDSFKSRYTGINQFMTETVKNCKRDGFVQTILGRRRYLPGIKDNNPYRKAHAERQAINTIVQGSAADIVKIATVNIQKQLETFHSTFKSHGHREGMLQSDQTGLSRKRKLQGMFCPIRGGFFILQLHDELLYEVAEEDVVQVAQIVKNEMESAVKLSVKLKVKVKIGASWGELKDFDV
SMILES = O=C(O)CCC(=O)c1ccc(-c2ccccc2)cc1; value = 90.4%
SMILES = c1ccc2c(-c3ccncc3)c[nH]c2c1; value = 102%
SMILES = CCOc1cc(N2CCC(O)CC2)ccc1Nc1ncc2c(n1)N(C)c1ccccc1C(=O)N2C; value = 103%
SMILES = NC(=O)c1ccc(-c2nc(-c3ccccn3)c(-c3ccc4c(c3)OCO4)[nH]2)cc1; value = 93.3%
SMILES = O=C(NCCO[N+](=O)[O-])c1cccnc1; value = 96.3%

Block 4 — read-out: enzyme activity; tested at: 10 µM; endpoint: remaining activity
Structure (SMILES): Cc1sc(C(=O)NC2COC2)cc1-n1cc(NC(=O)Nc2c(F)cccc2Cl)cn1
target = Cyclin-dependent kinase 1, with cyclin A (CDK1, Homo sapiens, UniProt P06493); scale = relative to: untreated control; value = 103%
target = ZAP70 (Homo sapiens, UniProt P43403); scale = relative to: untreated control; value = 98.8%
target = MAP2K3 (Homo sapiens, UniProt P46734); scale = relative to: untreated control; value = 82%
target = CLK2 (Homo sapiens, UniProt P49760); scale = relative to: untreated control; value = 105%
target = KSR2 (Homo sapiens, UniProt Q6VAB6); test = inhibitor; value = 99.2%
target = RPS6KA3 (Homo sapiens, UniProt P51812); scale = relative to: untreated control; value = 71.4%
target = AKT1 (Homo sapiens, UniProt P31749); scale = relative to: untreated control; value = 101%
target = MAP3K11 (Homo sapiens, UniProt Q16584); scale = relative to: untreated control; value = 86.3%

Excerpt of the above (block 1):
Compound = C#C[C@]1(OC(C)=O)CC[C@H]2[C@@H]3CCC4=C[C@@H](OC(C)=O)CC[C@@H]4[C@H]3CC[C@@]21C; value = 3%
Compound = COc1c(O)cc2oc3cc4c(c(O)c3c(=O)c2c1CC=C(C)C)CCC(C)(C)O4; value = -19%
Compound = C[C@H](CC[C@@H](O[C@@H]1O[C@H](CO[C@@H]2O[C@H](CO)[C@@H](O)[C@H](O)[C@H]2O)[C@@H](O)[C@H](O)[C@H]1O)C(C)(C)O)[C@H]1CC[C@@]2(C)[C@@H]3CC=C4[C@@H](CC[C@H](O[C@@H]5O[C@H](CO[C@@H]6O[C@H](CO)[C@@H](O)[C@H](O)[C@H]6O)[C@@H](O)[C@H](O)[C@H]5O)C4(C)C)[C@]3(C)[C@H](O)C[C@]12C; value = -16%
Compound = CC1=NN(c2ccccc2)C(=O)C1; value = -8%
Compound = c1ccc(C2CN3CCSC3=N2)cc1 (stereo not drawn); value = 9%
